{"data": "Results collected from several papers", "note": "Each numbered part is a random draw from the data of one study; scales do not carry over between parts. Values joined by “and” are separate records of one study, mostly repeats; a detail may differ. Positions count from the first letter of the parent shown.", "UniProt P57059, sequence (whole entry, looked up)": "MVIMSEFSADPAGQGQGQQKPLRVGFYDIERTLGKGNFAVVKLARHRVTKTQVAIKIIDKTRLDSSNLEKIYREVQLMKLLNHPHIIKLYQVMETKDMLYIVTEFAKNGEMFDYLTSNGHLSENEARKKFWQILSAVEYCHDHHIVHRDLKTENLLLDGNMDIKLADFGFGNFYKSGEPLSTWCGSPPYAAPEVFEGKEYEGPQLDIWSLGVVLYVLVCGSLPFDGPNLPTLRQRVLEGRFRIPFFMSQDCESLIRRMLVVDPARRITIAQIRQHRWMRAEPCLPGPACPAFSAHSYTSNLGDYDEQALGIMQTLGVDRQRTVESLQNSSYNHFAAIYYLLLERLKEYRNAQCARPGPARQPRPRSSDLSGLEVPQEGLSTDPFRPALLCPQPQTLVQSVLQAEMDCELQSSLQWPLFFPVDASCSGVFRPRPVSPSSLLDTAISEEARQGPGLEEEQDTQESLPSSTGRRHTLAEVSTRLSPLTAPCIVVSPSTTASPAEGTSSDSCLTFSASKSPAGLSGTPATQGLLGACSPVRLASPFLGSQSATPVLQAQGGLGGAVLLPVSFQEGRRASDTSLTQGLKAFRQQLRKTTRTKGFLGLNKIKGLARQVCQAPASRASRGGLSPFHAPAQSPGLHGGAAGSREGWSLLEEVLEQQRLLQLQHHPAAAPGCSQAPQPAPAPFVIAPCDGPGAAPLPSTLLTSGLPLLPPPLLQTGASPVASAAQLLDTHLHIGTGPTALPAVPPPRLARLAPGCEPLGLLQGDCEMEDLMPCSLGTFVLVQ", "UniProt Q13705, sequence (whole entry, looked up)": "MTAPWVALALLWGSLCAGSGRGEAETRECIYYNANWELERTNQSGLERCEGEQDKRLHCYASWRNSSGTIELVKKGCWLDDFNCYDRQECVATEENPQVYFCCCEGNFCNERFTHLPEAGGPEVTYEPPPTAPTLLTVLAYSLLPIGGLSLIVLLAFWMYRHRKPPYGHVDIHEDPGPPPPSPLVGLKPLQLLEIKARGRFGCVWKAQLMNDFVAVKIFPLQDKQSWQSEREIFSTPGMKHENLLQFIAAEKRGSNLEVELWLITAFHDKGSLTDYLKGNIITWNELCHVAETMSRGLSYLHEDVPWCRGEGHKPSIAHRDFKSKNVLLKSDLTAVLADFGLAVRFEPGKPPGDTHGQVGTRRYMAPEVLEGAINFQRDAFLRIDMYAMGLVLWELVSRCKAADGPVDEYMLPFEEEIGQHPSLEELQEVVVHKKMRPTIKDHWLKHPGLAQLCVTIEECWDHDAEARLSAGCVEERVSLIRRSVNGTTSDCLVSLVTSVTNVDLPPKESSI", "UniProt Q9UQ88, sequence (whole entry, looked up)": "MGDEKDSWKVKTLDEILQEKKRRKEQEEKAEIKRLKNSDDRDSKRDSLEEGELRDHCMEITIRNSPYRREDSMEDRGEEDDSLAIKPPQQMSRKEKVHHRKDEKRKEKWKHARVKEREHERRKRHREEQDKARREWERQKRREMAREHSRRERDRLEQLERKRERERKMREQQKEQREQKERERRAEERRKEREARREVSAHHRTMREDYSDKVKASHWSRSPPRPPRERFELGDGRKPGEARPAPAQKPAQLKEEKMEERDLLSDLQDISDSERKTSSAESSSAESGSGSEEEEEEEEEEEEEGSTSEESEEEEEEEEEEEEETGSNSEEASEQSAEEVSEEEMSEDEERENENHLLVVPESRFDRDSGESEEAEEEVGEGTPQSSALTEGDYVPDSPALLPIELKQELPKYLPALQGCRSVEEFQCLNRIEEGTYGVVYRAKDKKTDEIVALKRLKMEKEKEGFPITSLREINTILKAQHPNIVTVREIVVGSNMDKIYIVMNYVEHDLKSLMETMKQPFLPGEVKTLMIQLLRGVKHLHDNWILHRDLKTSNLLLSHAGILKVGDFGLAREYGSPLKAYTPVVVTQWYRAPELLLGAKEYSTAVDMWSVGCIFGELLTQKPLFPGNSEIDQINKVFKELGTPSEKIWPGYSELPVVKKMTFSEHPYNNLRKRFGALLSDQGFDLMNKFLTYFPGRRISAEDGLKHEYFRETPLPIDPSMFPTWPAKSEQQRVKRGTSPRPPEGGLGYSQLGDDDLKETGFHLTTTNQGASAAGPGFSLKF", "UniProt Q00534, sequence (whole entry, looked up)": "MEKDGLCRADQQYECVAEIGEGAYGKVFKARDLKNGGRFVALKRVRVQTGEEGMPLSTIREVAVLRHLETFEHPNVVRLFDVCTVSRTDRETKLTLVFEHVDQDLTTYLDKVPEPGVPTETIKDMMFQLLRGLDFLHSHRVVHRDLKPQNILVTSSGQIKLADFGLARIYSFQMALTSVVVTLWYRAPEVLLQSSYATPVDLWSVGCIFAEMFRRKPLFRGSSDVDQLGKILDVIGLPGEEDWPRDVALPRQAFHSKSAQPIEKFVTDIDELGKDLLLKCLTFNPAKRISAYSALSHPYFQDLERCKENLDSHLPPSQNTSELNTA", "UniProt O00506, sequence (whole entry, looked up)": "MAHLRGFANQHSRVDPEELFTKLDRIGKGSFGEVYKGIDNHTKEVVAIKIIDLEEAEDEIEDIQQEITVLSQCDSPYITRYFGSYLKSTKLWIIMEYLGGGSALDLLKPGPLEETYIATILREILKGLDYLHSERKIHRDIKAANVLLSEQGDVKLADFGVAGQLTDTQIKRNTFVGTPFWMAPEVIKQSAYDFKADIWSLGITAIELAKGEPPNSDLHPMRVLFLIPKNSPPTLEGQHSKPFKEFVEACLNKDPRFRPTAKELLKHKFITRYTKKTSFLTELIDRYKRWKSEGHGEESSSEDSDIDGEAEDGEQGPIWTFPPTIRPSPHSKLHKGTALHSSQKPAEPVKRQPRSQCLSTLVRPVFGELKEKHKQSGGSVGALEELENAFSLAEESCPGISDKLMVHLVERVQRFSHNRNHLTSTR", "UniProt Q04771, sequence (whole entry, looked up)": "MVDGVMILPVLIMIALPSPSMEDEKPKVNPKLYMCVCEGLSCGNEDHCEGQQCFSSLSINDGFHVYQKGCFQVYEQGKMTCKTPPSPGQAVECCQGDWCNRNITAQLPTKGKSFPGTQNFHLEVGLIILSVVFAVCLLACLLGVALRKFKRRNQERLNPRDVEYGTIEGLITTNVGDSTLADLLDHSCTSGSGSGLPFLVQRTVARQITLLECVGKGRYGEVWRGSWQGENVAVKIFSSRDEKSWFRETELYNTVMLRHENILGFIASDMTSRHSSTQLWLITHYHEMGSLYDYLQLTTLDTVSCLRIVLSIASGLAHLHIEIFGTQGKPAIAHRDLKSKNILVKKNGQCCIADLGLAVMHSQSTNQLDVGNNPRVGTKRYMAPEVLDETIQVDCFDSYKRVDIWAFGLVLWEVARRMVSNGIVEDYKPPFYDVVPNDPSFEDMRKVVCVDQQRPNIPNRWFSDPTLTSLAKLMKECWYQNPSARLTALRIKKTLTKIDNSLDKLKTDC", "UniProt P07948, sequence (whole entry, looked up)": "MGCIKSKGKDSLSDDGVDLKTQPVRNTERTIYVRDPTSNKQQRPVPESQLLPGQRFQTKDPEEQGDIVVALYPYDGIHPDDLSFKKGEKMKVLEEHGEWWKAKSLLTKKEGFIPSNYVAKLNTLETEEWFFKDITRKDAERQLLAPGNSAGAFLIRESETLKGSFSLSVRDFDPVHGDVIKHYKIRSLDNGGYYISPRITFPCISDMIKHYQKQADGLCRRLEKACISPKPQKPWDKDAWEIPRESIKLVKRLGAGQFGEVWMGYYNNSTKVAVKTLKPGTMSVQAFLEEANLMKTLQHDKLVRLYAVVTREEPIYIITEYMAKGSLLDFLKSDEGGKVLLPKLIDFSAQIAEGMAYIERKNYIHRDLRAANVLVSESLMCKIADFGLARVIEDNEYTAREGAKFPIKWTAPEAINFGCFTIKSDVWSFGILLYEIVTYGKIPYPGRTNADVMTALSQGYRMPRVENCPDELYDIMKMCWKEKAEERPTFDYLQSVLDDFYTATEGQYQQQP", "UniProt P42336, sequence (whole entry, looked up)": "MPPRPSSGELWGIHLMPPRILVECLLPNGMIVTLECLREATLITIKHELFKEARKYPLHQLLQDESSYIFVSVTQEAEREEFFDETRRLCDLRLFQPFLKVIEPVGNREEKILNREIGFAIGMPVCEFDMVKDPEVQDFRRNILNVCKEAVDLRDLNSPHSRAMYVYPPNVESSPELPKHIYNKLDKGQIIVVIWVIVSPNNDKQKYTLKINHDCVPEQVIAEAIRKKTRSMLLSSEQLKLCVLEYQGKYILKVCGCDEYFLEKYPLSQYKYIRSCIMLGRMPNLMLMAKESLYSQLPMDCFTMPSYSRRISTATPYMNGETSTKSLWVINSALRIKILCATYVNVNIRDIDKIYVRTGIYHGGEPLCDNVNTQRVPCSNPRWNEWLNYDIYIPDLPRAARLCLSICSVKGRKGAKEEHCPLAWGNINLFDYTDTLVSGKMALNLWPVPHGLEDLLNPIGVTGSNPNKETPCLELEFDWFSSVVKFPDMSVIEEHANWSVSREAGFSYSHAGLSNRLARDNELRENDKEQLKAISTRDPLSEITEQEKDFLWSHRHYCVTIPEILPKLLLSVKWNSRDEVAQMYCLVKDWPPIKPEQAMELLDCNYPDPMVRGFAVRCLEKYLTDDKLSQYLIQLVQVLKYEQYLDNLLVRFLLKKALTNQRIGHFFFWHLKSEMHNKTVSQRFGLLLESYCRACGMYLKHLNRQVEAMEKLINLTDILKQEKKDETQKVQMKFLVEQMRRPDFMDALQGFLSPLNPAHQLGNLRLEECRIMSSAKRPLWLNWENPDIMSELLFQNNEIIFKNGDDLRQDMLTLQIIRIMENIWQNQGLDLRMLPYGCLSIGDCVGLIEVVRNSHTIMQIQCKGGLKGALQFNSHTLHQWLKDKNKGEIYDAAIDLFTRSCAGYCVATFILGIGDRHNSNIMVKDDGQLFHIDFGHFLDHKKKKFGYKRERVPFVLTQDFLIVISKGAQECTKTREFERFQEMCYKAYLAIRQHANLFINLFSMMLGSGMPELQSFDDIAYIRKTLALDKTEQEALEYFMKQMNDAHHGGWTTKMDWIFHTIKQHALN"}
{"data": "Series 1", "target": "CCNA1, cyclin fold, Cln2 fusion (human)", "method": "yeast growth competition, sequencing", "sample": "yeast", "notes": "weak parent motif", "baseline": "not given", "direction": "higher = stronger binding", "parent": "viral docking peptide; KGVKRKLFAEDSS"}
{"Change": "K4F", "normalised enrichment score": -0.00547}
{"Change": "F8T", "normalised enrichment score": 0.0699}
{"Change": "E10W", "normalised enrichment score": -0.266}
{"Change": "R5L", "normalised enrichment score": -0.0805}
{"Change": "R5A L7A", "normalised enrichment score": 0.222}
{"Change": "G2V", "normalised enrichment score": 1.48}
{"Change": "D11V", "normalised enrichment score": 0.684}
{"Change": "E10K", "normalised enrichment score": 0.165}
{"Change": "K4Q", "normalised enrichment score": 0.808}
{"Change": "E10H", "normalised enrichment score": 0.044}
{"Change": "A9H", "normalised enrichment score": 0.714}
{"Change": "E10N", "normalised enrichment score": 0.754}
{"Change": "L7M", "normalised enrichment score": 0.358}
{"data": "Series 2", "SMILES": "Cn1cncc1[C@@](O)(COc1ccc(C#N)cc1-c1ccc(OC(F)(F)F)cc1)c1ccc(C#N)cc1", "concentration": "1 µM"}
{"target": "Phosphatidylinositol 4,5-bisphosphate 3-kinase catalytic subunit alpha isoform (PIK3CA, Homo sapiens, UniProt P42336)", "effect on": "cell-free assay", "method": "competition with immobilised ligand", "remaining binding [%]": 72}
{"target": "Interleukin-1 receptor-associated kinase 3 (IRAK3, Homo sapiens, UniProt Q9Y616)", "effect on": "cell-free assay", "method": "competition with immobilised ligand", "remaining binding [%]": 91}
{"target": "Cyclin-dependent kinase 11A (CDK11A, Homo sapiens, UniProt Q9UQ88)", "effect on": "binding", "method": "competition with immobilised ligand", "remaining binding [%]": 100}
{"target": "Serine/threonine-protein kinase SIK1 (SIK1, Homo sapiens, UniProt P57059)", "method": "competition binding", "remaining binding [%]": 100}
{"target": "Activin receptor type-2B (ACVR2B, Homo sapiens, UniProt Q13705)", "effect on": "binding", "method": "competition with immobilised ligand", "remaining binding [%]": 100}
{"target": "Protein kinase C eta type (PRKCH, Homo sapiens, UniProt P24723)", "effect on": "cell-free assay", "method": "competition with immobilised ligand", "remaining binding [%]": 95}
{"target": "Tyrosine-protein kinase Lyn (LYN, Homo sapiens, UniProt P07948)", "effect on": "cell-free assay", "method": "competition with immobilised ligand", "remaining binding [%]": 100}
{"target": "Serine/threonine-protein kinase 25 (STK25, Homo sapiens, UniProt O00506)", "effect on": "cell-free assay", "method": "competition with immobilised ligand", "remaining binding [%]": 95}
{"target": "Cyclin-dependent kinase 13 (CDK13, Homo sapiens, UniProt Q14004)", "effect on": "cell-free assay", "method": "competition with immobilised ligand", "remaining binding [%]": 87}
{"target": "Epidermal growth factor receptor (EGFR, Homo sapiens, UniProt P00533, del747-750/T751S)", "effect on": "cell-free assay", "method": "competition with immobilised ligand", "remaining binding [%]": 60}
{"target": "Activin receptor type-1 (ACVR1, Homo sapiens, UniProt Q04771)", "effect on": "cell-free assay", "method": "competition with immobilised ligand", "remaining binding [%]": 100}
{"data": "Series 3", "Structure (SMILES)": "CC(C)C[C@@H]1NC(=O)[C@@H](N(C)C(=O)[C@H](CC2CCC2)NC(=O)[C@@H]2C[C@@H](F)CN2C(=O)C2(C(F)(F)F)CC(F)(F)C2)CCCCNC(=O)C2(CC2)NC(=O)[C@H](Cc2cc(Cl)ccc2Cl)N(C)C1=O", "time": "6 days", "baseline": "DMSO"}
{"cell line": "NCI-H82 DOX-inducible E2F1 WT, with doxycycline", "concentration": "20 nM", "relative cell count": "1 and 0.972 and 0.978"}
{"cell line": "NCI-H82 DOX-inducible E2F1 WT, with doxycycline", "concentration": "200 nM", "relative cell count": "0.794 and 0.56 and 0.462"}
{"cell line": "Jurkat DOX-inducible E2F1 WT, no doxycycline", "concentration": "2 µM", "relative cell count": "0.18 and 0.254 and 0.193"}
{"cell line": "NCI-H82 DOX-inducible E2F1 WT, no doxycycline", "concentration": "600 nM", "relative cell count": "0.958 and 0.659 and 0.819"}
{"cell line": "NCI-H82 DOX-inducible E2F1 WT, no doxycycline", "concentration": "2 µM", "relative cell count": "0.537 and 0.546 and 0.407"}
{"cell line": "Jurkat DOX-inducible E2F1 WT, no doxycycline", "concentration": "600 nM", "relative cell count": "0.309 and 0.308 and 0.403"}
{"cell line": "Jurkat DOX-inducible E2F1 WT, no doxycycline", "concentration": "200 nM", "relative cell count": "0.622 and 0.389 and 0.671"}
{"cell line": "NCI-H82 DOX-inducible E2F1 WT, no doxycycline", "concentration": "60 nM", "relative cell count": "1.07 and 0.83 and 1.17"}
{"data": "Further values, each from its own experiment"}
{"SMILES": "CC(C)(C)c1cc(C=C(C#N)C#N)cc(Br)c1O", "target": "Cyclin-dependent kinase 6, with cyclin D1 (CDK6, Homo sapiens, UniProt Q00534)", "effect on": "enzyme activity", "action": "inhibitor", "concentration": "0.5 µM", "endpoint": "remaining activity", "value": "99.1%"}
{"note": "For quick reference, copied from above (series 3):"}
{"cell line": "NCI-H82 DOX-inducible E2F1 WT, with doxycycline", "concentration": "20 nM", "relative cell count": "1 and 0.972 and 0.978"}
{"cell line": "NCI-H82 DOX-inducible E2F1 WT, with doxycycline", "concentration": "200 nM", "relative cell count": "0.794 and 0.56 and 0.462"}
